Results gathered from unrelated publications.
Numbered parts are unrelated; each lists some results of a single study.

Sample 1
Target: Phosphate system positive regulatory protein PHO4, full length, GST-tagged (PHO4, Saccharomyces cerevisiae, UniProt P07270, residues 1-312)
Technique: competition protein-binding microarray
Molecule type: double-stranded DNA, one strand shown
Sample: in vitro
Concentration: 2 µM
Notes: whole 60-bp probe, lowest competitor level
Together with: Cbf1 competitor, 0.05 µM
Reading: higher = stronger binding
All sequences stand within: … GTCTTGATTCGCTTGACGCTGCTG
Target sequence (chain): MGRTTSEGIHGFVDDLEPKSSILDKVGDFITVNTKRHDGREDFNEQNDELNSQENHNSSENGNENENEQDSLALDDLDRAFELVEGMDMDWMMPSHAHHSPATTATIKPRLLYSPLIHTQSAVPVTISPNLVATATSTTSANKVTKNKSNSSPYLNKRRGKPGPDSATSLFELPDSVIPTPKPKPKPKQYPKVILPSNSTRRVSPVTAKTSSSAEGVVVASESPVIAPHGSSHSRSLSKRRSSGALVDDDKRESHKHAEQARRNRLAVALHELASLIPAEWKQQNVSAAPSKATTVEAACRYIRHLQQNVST
Oligonucleotide | fluorescence intensity [a.u.]
GTCTTGTCTCATTGGGTTGTGGGTGTCCCCACTTCA | 5240
CCCAGCAAGCGTTCATCCGTGACGGGTTCAGCAAGG | 4100
CTTCTGTAAATTTGAGATGTGGGTGGACGCGCCCCG | 3980
TGCGCAACAACTTGTCACTTTACTTTATGTCTAGAA | 2850
CTTTCCCGATCTTGTCACGGTACTTTAGCACATTTG | 5030
GCCTCCATATTACTCACCGTGCCAGACCCATTGTCG | 6790
CGGGGTTAAGTTTGTGCAGTGGGTGGCTTGCAGCAG | 5440
CTAATTGTGCTTTTGCACGTGCCAGGTTTATTAAAC | 18000
GTCTTGTCTCATTGCCATGTGGGTGTCCCCACTTCA | 10600
TCTAACCAATTGTTCCCCGTGAGATGCTTTCTCTGA | 5060
CATACCCAACCTTGGGGGGTGGGTGAAGATATTTGT | 5460
CCGTCAACGGTCAAGCCCGTGACAAAGCCACAATGA | 6640
CATACCCAACCTTGGCCAGTGGGTGAAGATATTTGT | 3440
CTACTACAGATATTACATGTGGCGAAAAAGACAAGA | 9010
CTAACGAAGGTTTGTCACTCTACTTACAAGCCAAGT | 3430
AAATTACTAAGTTGTCACGTGGGTGACGCCGTATGA | 19300
GAGTGGGCTGGCGGCAGCATGCAGAGCGTTATCGCT | 6590
GAGTGCTCAGAAAACCCCGTGGATTACCCAACGGTC | 7050
TGCGCAACAACTTTTCACGTGTATTTATGTCTAGAA | 13700
CACACCGTACTTGAGCACATGTCTGGATTGCTAGCT | 14700
CTTCTCTAGGTTATGTTCATGCCCTTGCTCATCAAC | 4890
TCATTTCGAATCGCGTACGTGGCCGGTTGTGGCTGG | 7040
CAAGAAATCGCACTTTACGTGCAAACAAATCAAATG | 5010
TCCAATCTTTTCCGTCACATGTACACACTCATATAC | 9810
TAGTATTCGATGTGTCTCGTGATGGCTTAATTTCAG | 7310

Sample 2
Target: RING finger protein unkempt homolog, zinc fingers 1-6, GST-SBP tag (UNK, Homo sapiens, UniProt Q9C0B0, residues 30-357)
Technique: RNA Bind-n-Seq
Molecule type: RNA
Sample: in vitro
Concentration: not given
Notes: RNA with constant flanks, human-mouse chimeric sites, ends assumed
Relative to: input RNA pool
Reading: higher = stronger binding
All sequences stand within: GGGAGUUCUACAGUCCGACGAUC … CAACAGAGGAUUGAGCAUCA
Construct (chain): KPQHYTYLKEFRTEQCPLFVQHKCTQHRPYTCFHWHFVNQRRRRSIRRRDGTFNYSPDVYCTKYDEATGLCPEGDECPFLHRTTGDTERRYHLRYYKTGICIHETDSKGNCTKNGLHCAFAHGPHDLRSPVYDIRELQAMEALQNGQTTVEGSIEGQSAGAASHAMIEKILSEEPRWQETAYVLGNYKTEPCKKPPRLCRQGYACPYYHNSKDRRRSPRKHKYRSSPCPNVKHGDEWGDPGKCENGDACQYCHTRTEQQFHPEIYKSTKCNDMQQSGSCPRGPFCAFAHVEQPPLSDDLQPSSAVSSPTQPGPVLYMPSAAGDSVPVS
Oligonucleotide | bound/input enrichment [ratio]
AUUGUUGAAGCGAAUCCACUCCUAGAAGCAUUUGGAAAUGCAAAGACUGUUCGCAACAAUAAUAGCAGUCGAUUUGGAAAAUUUGUAGAAAUUCAUUUCAAUGAAAAGAGUUCGGUUGUU | 0.294
CGCUGGCCCAAGCUGAUGGACUCUGAUGGCCUCCAUCAAGGUAUUAUGUGUGCCUUCUCUUAGUCCCUGUUUUCGGGAUGUUAUGAACAGUAUCAUGGUGGUUUGAAAGCACCAGCUUUG | 0.103
AACUUUGUGCAUCGGUUUCCCUUUGUAGCUGUUUCAAUUGGCUUCCUUGUGAAUAAAAAGAUAGAAUUUGGAAUUGUGUACAGCUGUGUGGAAGAUAAGAUGUACACCGGCAGGAAAGGG | 4.56
AAUUUCCUGUCAUACUUUGUAGCAAGACACAUCAGACUUACAGAGCACCUGGCCACAUUCUAGGUUUGUGUUAUUUCUAAGCCUUUUAUAUGAUCAAAUGAGAACACUGCUUAACUAAUG | 0.158
UCUUUAAAAAAAAAAUUACAGGAAAAUACAGUGCUUUCCCUCCCAUAGAUCCACGUUCAAGCUCAAAGAGCAAAGGCUUUGCACGGAUCUGAUGAUGCUGAUGAAGAAAGAUUUCUGAGA | 0.52
UUACCCGAGAACGAGGAUGAGCUGGAGAGCACCAACAGGCGCUACACCAAGAGGGACUGUAGCACUUUCCUCAGAACUAGUGAGACGGGCAUCGUGGACCAGGUCAUGGUCACUCUCAAC | 0.261
GUAAUGGACGUCAACACUGCUUUACAAGAGGUUCUGAAGACCGCCCUCAUCCACGAUGGCCUAGCACGUGGCAUACGCGAAGCUGCCAAAGCCUUAGACAAGCGCCAAGCCCAUCUGUGU | 0.18
GCAAAGGAUGAUGAGGCGGCAGCUGUUGCCCUUUCCUCUCUCGUUCAUGCUUUGGAUGACUUAGACAUGGUCGCCAUCGUCCGAUAUGCUUAUGACAAAAGAUCUAAUCCUCAAGUUGGU | 0.259
UUACCCGAGAACGAGGAUGAGCUGGAGAGCACCAAUAGGCGCUACACCAAGAGGGACUGCAGCACUUUCCUCAGAACUAGUGAGACGGGCAUCGUGGACCAGGUCAUGGUAACUCUCAAC | 0.136
GUACUGCAACAGCAGGGAAAACUGCAGGAAGCUCUGAUGCAUUAUAAGGAGGCUAUUCGAAUCAGUCCUACCUUUGCUGAUGCCUACUCCAAUAUGGGAAACACUCUAAAGGAGAUGCAG | 0.129
GGACAUCUUGUCAGGAUUUAUGUUCCUGUGAAACAAGUGAACACUCUGAUACACUUCAUCUGCUUGUACAUCUGUAUUUGUAUAAUAUGUAAAUAUGUUAAUCCAAGCAAUGUGUCACUU | 0.0903

Sample 3
Target: Fragile X messenger ribonucleoprotein 1, C-terminal low-complexity region (Fmr1, Mus musculus, UniProt P35922)
Technique: RNA Bind-n-Seq
Molecule type: RNA
Sample: in vitro
Concentration: 200 nM
Notes: whole 134-nt RNA, ends assumed
Together with: 150 mM LiCl
Relative to: input library
Reading: higher = stronger binding
All molecules: 7-deaza-guanosine replaces G
All sequences stand within: GGGAGUUCUACAGUCCGACGAUC … UGGAAUUCUCGGGUGUCAAGG
Oligonucleotide | log2 enrichment
ACCAUGCAGGUGGGCAUCUUUGGGAAGUGGGGCAAGGCGGGGAUAGGGAGGGGGGUAACACUUUGGGAACAGGUGGUCCCAGGUCGUUUC | 1.14
ACCAUGCAGGUGGGCAUCUUUGGGAAGUGGGGCAAGGGGGGGACAGGGAGGGGGGUAACACUUUGGGAACAGGUGGUCCCAGGUCGUUUC | 0.825
UGGGAGGUGGCUUUUGUUUAUUUUUUUAGCUCAUUUCCAGGGGUGGGAAUUUUUUUUUAAUAUGUGUCAUGAAUAAAGUUGUUUUUGAAA | -0.0571
CAAGUCCUGUGCUACACAUCGUAUGUACCGAAUCGGGAAAGGGUGGGUUUUUGGGAAAGUAUUAUGUUACGCCGUUCGGAUCUGCACUUC | -1.1
ACAAUGCAGGUGGGCAUCUUUGGGAAGUGGGGCAAGGGGGGGAUAGGGAGGGGGGUAACACUUUGGGAACAGGUGGUCCCAGGUCGUUUC | 1.35
GGUAGCAAGAGCUCCAGAGAGAAGUCGAGGAAGAGAGAGACGGGGUCAGAGAGAGCGCGCGGGCGUGCGAGCAGCGAAAGCGACAGGGGC | 1.18
UCCCCCCUAUUGGAAGUAAAGGGGAACAUAGAACUGAAGAGACCUCUGAUUAAGGCCCCUUCCCAGCUGCCUCUCUCAGGAAGCAGACUC | 0.784
UAACUUUAGAGGAGGAUCUGAUGGAUAUGGCAGUGGACGUGGAUUUGGGGUUGGCUAUAAUGGGUAUGGAGGAGGACCUGGAGGUGGCAA | -0.205
GUCCUGUGCUACACAUCGUAUGUACCGAAUCGGGAAAAAGGGAAAAAGGGAAAAAGGGAAAGUAUUAUGUUACGCCGUUCGGAUCUGCAC | 0.14
UCAAGUCCUGUGCUACACAUCGUAUGUACCGAAUCGGGGAAGGAAGGGGAAGGGGAAAGUAUUAUGUUACGCCGUUCGGAUCUGCACUUC | -0.4
UGGCCCUGGUGGCAUGCGGGGAAGAAGAGGUGGCCUCAUGGAUCGUGGUGGUCCCGGUGGAAUGUUCAGAGGUGGCCGUGGUGGAGACAG | 0.265

Sample 4
Target: Histone acetyltransferase KAT6A, winged helix 2, GST fusion (KAT6A, Homo sapiens, UniProt Q92794, residues 85-181)
Technique: protein binding microarray
Molecule type: double-stranded DNA, one strand shown
Sample: in vitro
Concentration: not given
Notes: 8-mer, flanks averaged, mean of 2 arrays, mostly near background
Relative to: not given
Reading: higher = stronger binding
Residues (chain): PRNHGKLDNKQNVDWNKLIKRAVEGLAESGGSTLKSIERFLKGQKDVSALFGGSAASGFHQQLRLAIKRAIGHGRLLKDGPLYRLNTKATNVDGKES
Oligonucleotide | E-score
AACCTGAA | -0.216
GGATCCCC | 0.000225
CCATAAGG | -0.111
CGTTCCTC | -0.149
GCTGGGAA | 0.146
AATATTGT | 0.0428
ATGACAAT | 0.0733
ACGACGTA | -0.109
TGCGACAA | 0.0805
ACTCAGGG | 0.117
TGTCCGAA | 0.04
AAAATATC | 0.167
AAAGGCGC | 0.0343
ACACTATG | -0.101
CTCTAGTA | -0.0287
CGCTTCAG | 0.208
ATGAAATA | 0.116
CTTCTGAC | -0.0865
GACGACCA | -0.2
CCGCCAGG | 0.0116
ACTATCCA | -0.0569

For quick reference, copied from above (sample 3):
Oligonucleotide | log2 enrichment
UGGGAGGUGGCUUUUGUUUAUUUUUUUAGCUCAUUUCCAGGGGUGGGAAUUUUUUUUUAAUAUGUGUCAUGAAUAAAGUUGUUUUUGAAA | -0.0571
CAAGUCCUGUGCUACACAUCGUAUGUACCGAAUCGGGAAAGGGUGGGUUUUUGGGAAAGUAUUAUGUUACGCCGUUCGGAUCUGCACUUC | -1.1
UAACUUUAGAGGAGGAUCUGAUGGAUAUGGCAGUGGACGUGGAUUUGGGGUUGGCUAUAAUGGGUAUGGAGGAGGACCUGGAGGUGGCAA | -0.205
ACCAUGCAGGUGGGCAUCUUUGGGAAGUGGGGCAAGGCGGGGAUAGGGAGGGGGGUAACACUUUGGGAACAGGUGGUCCCAGGUCGUUUC | 1.14
UCAAGUCCUGUGCUACACAUCGUAUGUACCGAAUCGGGGAAGGAAGGGGAAGGGGAAAGUAUUAUGUUACGCCGUUCGGAUCUGCACUUC | -0.4
